Experimental data of several laboratories.
A part holds a random share of what one study measured. Changes are numbered by the printed parent chain.

Block 1
Target: RING finger protein unkempt homolog, zinc fingers 1-6, SBP tag (UNK, Homo sapiens, UniProt Q9C0B0, residues 30-357)
Sequence of UniProt Q9C0B0 (30-357, looked up): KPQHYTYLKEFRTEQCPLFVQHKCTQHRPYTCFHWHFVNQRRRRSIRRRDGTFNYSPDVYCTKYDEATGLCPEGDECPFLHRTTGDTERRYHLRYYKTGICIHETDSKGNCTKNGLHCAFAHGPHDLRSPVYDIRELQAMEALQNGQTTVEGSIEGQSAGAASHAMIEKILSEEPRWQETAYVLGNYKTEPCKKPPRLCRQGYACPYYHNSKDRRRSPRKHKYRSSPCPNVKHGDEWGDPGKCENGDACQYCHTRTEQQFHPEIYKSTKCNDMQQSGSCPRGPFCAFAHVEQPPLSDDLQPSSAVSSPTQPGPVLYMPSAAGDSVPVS
Technique: RNA Bind-n-Seq
Molecule type: RNA
Sample: in vitro
Tested at: 100 nM
Notes: RNA with constant flanks, vertebrate orthologous sites, ends assumed
Baseline: input RNA pool
Reading: higher = stronger binding
Constant ends, left off below: GGGAGUUCUACAGUCCGACGAUC … CAACAGAGGAUUGAGCAUCA
| Sequence | bound/input enrichment |
| --- | --- |
| UUUGAGGGAGAGAUUCCUGUGGUUUUUUAAUACUUAAUUUGUUUUCUUUAGCUAUUCCAGUAUGCCAUUUUUGAUGGAACUGGUUUAUUGACAGUUCCUGGCAUAUGGUCAGAUUAGAUA | 1.3 ratio |
| CUCAAGCUUUGUGUUUGGCUGUACUUGCAUUAGCUGCUACAAAUAGAAUAAAGAAUUUCAUAGCCAGUAUCUAUCAUUUAGAUGCAUGGAAAAUGGGCUUUGCACAAUGGGUUUGGAGCU | 2 ratio |
| AUUUAAAAUGUAGUUAGUUAUAUUUAAUGACCUCAUUCCUAAGUUUCUUUUUCAUUAAUGUAGCUUUCAUUUCUGUUGUUGUUGUUUUAAUAAUAUGAUGAAAUAGAAAGUCUGUGCCAG | 0.438 ratio |
| CUCCCCUUAAUCCCAUCUCAUCUGUUUCAUAGUGCUGAAAUUCUGUCUUCAGCCUUAUUUUUAGCGAACUUAUUCUAAUUCUAGCGAAACUUCCAGUGUGGAUACUGUGAGCUAUGUGGA | 2.87 ratio |
| AGCUUCUGGCGACAUUUGGCCUGGCCUUUCAGCGUAUGAUAACAGUCCAAGGUCACCCCAUAGUCCUUCUAUUGCCACCCCACCUAGUCAGAGCUCAUCUUGCUCUGAUGCCCCUCUGCU | 0.728 ratio |
| CCAGAAUUUUAACCAAGAAUCUGAAGGUAGAAAUACAGGACCAUGGUUAUCUUCUUCACUUAGAAAUAGAUGCACACCCUUGUUCUCUAGAAGGAGACGAGAGGGACGAGAUGAAUCUUC | 0.567 ratio |
| GUUGUGACCCAUUUAACAUACACAAAAAAUUAGCCAAAAAAAAUUUGCAUGUAAUUGACUUAGAUGAUGCCACUUUUCUGAGUGCAAAAUUCGGAAGACAGCUUGUACCUGGUUGGAAAC | 2.04 ratio |
| AAGAUGGUUUCAAUCUCGUCUCUCUCCCUGUGGGGAGUGGGGGAAGCUGUUCCAAUCCAUGGGUUUUUUUUUAAAUUUGUUUGUUUUUUUAUUUUAAAAAAAUACUGUAUUUAUUAUGAC | 0.681 ratio |
| UCCCCGUUCACCCUUAAGAUAGAACUUUUUAAAAUUGUGUUGCCACCACUUCUGAAAACUUAGCAAUAUUAGAAUAAGAUGUUAGUGAAGUAAAUUUUGCUCAUUAUUUUGCAAACCUAA | 2.46 ratio |
| GCAUGCACAUGCCACUGUCACCAAAAGCAACUACCGUCUUCAAAACCUCCAAUAGCCUUCUUAGGAUUCUCUCCCUCUUUCCCUUCUGUUCCCCCGAUGCUUUAAAUGAUUAGAAGUCCU | 1.78 ratio |
| CUCUAUGGGCCUCGCAGAGUUGAGAUCCUGGAAGAAGAAAGUGAACAGUAAUCGUCAAUUCAGUAUUUAUGCUUAGGUGUGAAAUAAAUGUUAUUUGUUGAUCAUUUCUAUAAUCCAGAG | 0.256 ratio |

Block 2
Target: CCNB3, cyclin fold, Cln2 fusion (human)
Technique: yeast growth competition, sequencing
Sample: yeast
Notes: weak parent motif
Baseline: not given
Reading: higher = stronger binding
Starting sequence: INSM1 docking peptide (human); PKAIRKLHFEDEV
| Change | normalised enrichment score |
| --- | --- |
| PKAIRKLHLEDEV [F9L] | 0.0928 |
| PKAIRKAHFEDEV [L7A] | -0.025 |
| PKAIRKLHFLDEV [E10L] | -0.0395 |
| PKAIRKLHFECEV [D11C] | 0.571 |
| PKAIRQLHFEDEV [K6Q] | 0.74 |
| PKAIRKLMFEDEV [H8M] | -0.0342 |
| PKAIRKLHHEDEV [F9H] | 0.16 |
| PKAPRKLHFEDEV [I4P] | 0.249 |
| PKAIRKLHFEFEV [D11F] | 0.664 |
| PKAIRKLHFENEV [D11N] | 0.343 |

Block 3
Target: Interferon regulatory factor 5, full length, phosphomimetic (IRF5, Homo sapiens, UniProt Q13568-2, residues 1-514, K96S/S451D/S453D/S456D/S462D)
Technique: protein-binding microarray
Molecule type: double-stranded DNA, one strand shown
Sample: in vitro
Tested at: 250 nM
Notes: 60-bp whole probe
With: salmon DNA 0.4 mg/ml
Baseline: random background probes
Reading: higher = stronger binding
Constant ends, left off below: GCCTAGCAC … GTCTTGATTCGCTTGACGCTGCTG
| Sequence | log fluorescence [z-score] |
| --- | --- |
| TTAGGTATCCTTTTCCCTTAGTGCTAG | 0.719 |
| TTAGTACTGGGGTATCGGTTAGTGCTA | 2.39 |
| GACTGTATCGGACTGGGGACGTGCTAG | 0.929 |
| TTAGCACTGGGGACTGGGTTAGTGCTA | -0.348 |
| GACGATTTCAGTATCGAGAAGTGCTAG | 3.72 |
| TTAGGTTTAGACACTGGGTTAGTGCTA | 0.0516 |
| GTGATGTGAGGGGAGAGGGAGTGCTAG | -0.329 |

Other studies, line by line
| Molecule | target | test | system | conditions | scale | endpoint | value |
| --- | --- | --- | --- | --- | --- | --- | --- |
| PhoQ, residues 284 288 289 292 302 303 TNASYF | PhoP, residues 12 14 15 18 19 STWGI (Escherichia coli, UniProt P23836) | Sort-seq, item: YFP reporter | E. coli | PhoQ-PhoP variant library, with: 10 µM Mg2+ | baseline: high Mg2+ state, higher = stronger signaling | fold induction | 1.18 |

For quick reference, copied from above (block 3):
| Sequence | log fluorescence [z-score] |
| --- | --- |
| TTAGGTATCCTTTTCCCTTAGTGCTAG | 0.719 |
| TTAGTACTGGGGTATCGGTTAGTGCTA | 2.39 |
| GACTGTATCGGACTGGGGACGTGCTAG | 0.929 |
| TTAGCACTGGGGACTGGGTTAGTGCTA | -0.348 |
| GACGATTTCAGTATCGAGAAGTGCTAG | 3.72 |
